Results pooled from the literature.
Each line is one published result; not all experiments were run side by side.
Target: Bone morphogenetic protein receptor type-1B (BMPR1B, Homo sapiens, UniProt O00238)

The inhibition of `C=CC(=O)N1Cc2nc(-c3cc(-c4cc(Cl)cnc4Cl)c(F)cc3F)n(-c3ccncn3)c2C1` is reported as -4.8% (cell-free assay; 1 µM).
`CCN1CCN(Cc2ccc(C(=O)Nc3ccc(C)c(NCc4cnc5[nH]ccc5c4OC)c3)cc2C(F)(F)F)CC1` has a remaining binding of 96% (binding, competition with immobilised ligand; 1 µM).
With `Nc1ncc(-c2cc(-c3cnn(CC(F)(F)F)c3)ncc2F)nc1C(=O)NC1CNCC(F)C1` (centres unmarked) the remaining activity was 108% (enzyme activity; 1 µM; reference: DMSO control).
The remaining binding of `Nc1ncc2c(n1)-c1c([nH]c3ccc(C4=CCOCC4)cc13)CCC2` is reported as 82% (binding, competition with immobilised ligand; 1 µM).
`COc1cc(Nc2nc(C)cc(-c3cnn4nc(OC)ccc34)n2)cc(C(F)(F)F)c1` gave a remaining activity of 81% (inhibitor; 1 µM; reference: control).
For `Cc1nc2c(F)cc(-c3nc(Nc4ccc(CNC(=O)CCCCCCC(=O)NO)cc4)ncc3F)cc2n1C(C)C`, the inhibition was 21% (enzyme activity, inhibitor; 1 µM).
`COc1cc(Nc2nccc(-c3cnn4nc(OC)ccc34)n2)cc(C(F)(F)F)c1` has a remaining binding of 79% (binding, competition with immobilised ligand; 1 µM).
For `Cc1ccc(-c2c(/C=C(\C#N)C(=O)NC(C)C)n(CCCO)c3ncnc(N)c23)cc1`, the remaining binding was 55% (cell-free assay, competition with immobilised ligand; 1 µM).
The remaining binding of `C=CC(=O)N1CCc2ccc(-n3c(=O)ccc4cnc5ccc(-c6cnn(C)c6)cc5c43)cc21` is reported as 100% (KINOMEscan; 1 µM; reference: DMSO control).
`NC(=O)C[C@H]1CCc2sc3ncnc(O[C@H]4CC[C@H](N5CCOCC5)CC4)c3c21` gave an inhibition of 6% (enzyme activity, inhibitor; 10 µM).
With `CC(C)=CC1OC(C)(C)C2C=C3C(=O)C(Cl)=CC(O)C3C3C(O)C4OC4C(=O)C132` (centres unmarked) the remaining binding was 58% (cell-free assay, competition with immobilised ligand; 10 µM).
`O=C(Cc1ccc(OCc2ccccc2)cc1)NC1(C(=O)O)CCN(C(=O)c2ccc(-c3cccc(Cl)c3)cc2)CC1` — result for “activity vs control”: 107% (enzyme activity, inhibitor; 10 µM).
The remaining binding of `Cc1cnc2nc1Nc1cccc(c1)COC/C=C/COCc1cc(ccc1OCCN1CCOCC1)N2` is reported as 82% (binding; 0.1 µM).
`COc1c(Cl)cccc1Nc1c(-c2ccncc2C#C[C@@]2(C)CCCN2C(=O)/C=C/CN(C)C)[nH]c2c1C(=O)NCC2` has a remaining binding of 81% (cell-free assay, competition with immobilised ligand; 3 µM).
With `CNC(=O)C1CCN(c2cc(C)c(F)cc2NC(=O)c2ccc(-c3cc(O)ccc3C)c(C)c2)CC1` the remaining binding was 64% (binding, competition with immobilised ligand; 1 µM).
With `CN1CC[C@@H](COc2cnc(C#N)cc2-c2ccn3nc(NC(=O)C4CC4)cc3c2)C1` the inhibition was -2% (enzyme activity, inhibitor; 1 µM).
Under “activity vs control”, `CNC(=O)C[C@H](Cc1ccc(C#N)cc1)NC(=O)c1cc(-c2ccc(CN[C@H](C)c3ccc(C)cc3)o2)ccc1Cl` is recorded as 104% (enzyme activity, inhibitor; 1 µM).
For `NC(=O)[C@@H](O)C[C@H]1CCc2sc3ncnc(O[C@H]4CC[C@H](N5CCOCC5)CC4)c3c21`, the inhibition was -5% (enzyme activity, inhibitor; 10 µM).
`CNC1C[S+]2CC[S+]3CC[S+](C1)[Ru-4]321([N]=C=S)[n]2c3ccc(OC)cc3c3c4c(c5cc(F)c[n+]1c5c32)C(=O)NC4=O` (centres unmarked) has a remaining binding of 100% (KinomeScan; 0.1 µM; reference: untreated).
`C=CC(=O)N1CCCC(n2c(=O)c3ncccc3n(Cc3ccc(Oc4ccccc4)cc3)c2=O)C1` (centres unmarked) gave a remaining binding of 77% (cell-free assay, competition with immobilised ligand; 1 µM).

Some of these lines once more:
`NC(=O)C[C@H]1CCc2sc3ncnc(O[C@H]4CC[C@H](N5CCOCC5)CC4)c3c21` gave an inhibition of 6% (enzyme activity, inhibitor; 10 µM).
With `CC(C)=CC1OC(C)(C)C2C=C3C(=O)C(Cl)=CC(O)C3C3C(O)C4OC4C(=O)C132` (centres unmarked) the remaining binding was 58% (cell-free assay, competition with immobilised ligand; 10 µM).
`CNC1C[S+]2CC[S+]3CC[S+](C1)[Ru-4]321([N]=C=S)[n]2c3ccc(OC)cc3c3c4c(c5cc(F)c[n+]1c5c32)C(=O)NC4=O` (centres unmarked) has a remaining binding of 100% (KinomeScan; 0.1 µM; reference: untreated).
